# Measured values gathered from unrelated publications.
# A part holds a random share of what one study measured. Positions count from the first letter of the parent shown.

# Sample 1
# Target: CRIPT, C-terminal peptide
# Technique: DHFR complementation, deep sequencing
# Medium: yeast
# Setting: single substitutions, model-inferred values
# Reference: wild type
# Reading: higher = weaker binding
# Starting sequence: ERBIN, PDZ domain 1 (human); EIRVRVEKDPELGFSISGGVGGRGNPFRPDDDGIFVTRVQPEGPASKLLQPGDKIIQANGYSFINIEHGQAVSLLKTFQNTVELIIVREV; partner TKNYKQTSV
Variant,binding free energy change
D9R,-1.66 kJ/mol
K54Q,0.339 kJ/mol
L49P,3.73 kJ/mol
T81P,0.321 kJ/mol
N59E,-0.251 kJ/mol
T81Y,1.23 kJ/mol
F35I,3.27 kJ/mol

# Sample 2
# Target: Prothrombin, mature alpha-thrombin (F2, Homo sapiens, UniProt P00734)
# Technique: aptamer microarray, sandwich
# Form: DNA with 2'F-ANA
# Medium: in vitro
# Tested at: 200 nM
# Setting: whole 15-mer aptamer, many near background
# Added: Cy3 exosite-II aptamer, 400 nM
# Reading: higher = stronger binding
# Strand: GGTTGGTGTGGTTGG
Modification,mean fluorescence intensity
2'F-ANA at 1 2 4 5 6 7 9 10 11 15,52.2 a.u.
2'F-ANA at 3 4 6 7 8 9 10 15,307 a.u.
2'F-ANA at 3 4 5 6 7 10 12 14 15,48 a.u.
2'F-ANA at 1 3 6 9 10 13,126 a.u.
2'F-ANA at 1 3 5 6 8 9 14 15,46.3 a.u.
2'F-ANA at 2 5 6 9 12 14,47.5 a.u.
2'F-ANA at 3 4 9 10 12 13 14,232 a.u.

# Sample 3
# Target: Sal-like protein 4, full length isoform A (SALL4, Homo sapiens, UniProt Q9UJQ4, residues 1-1053)
# Sequence of UniProt Q9UJQ4 (whole entry, looked up): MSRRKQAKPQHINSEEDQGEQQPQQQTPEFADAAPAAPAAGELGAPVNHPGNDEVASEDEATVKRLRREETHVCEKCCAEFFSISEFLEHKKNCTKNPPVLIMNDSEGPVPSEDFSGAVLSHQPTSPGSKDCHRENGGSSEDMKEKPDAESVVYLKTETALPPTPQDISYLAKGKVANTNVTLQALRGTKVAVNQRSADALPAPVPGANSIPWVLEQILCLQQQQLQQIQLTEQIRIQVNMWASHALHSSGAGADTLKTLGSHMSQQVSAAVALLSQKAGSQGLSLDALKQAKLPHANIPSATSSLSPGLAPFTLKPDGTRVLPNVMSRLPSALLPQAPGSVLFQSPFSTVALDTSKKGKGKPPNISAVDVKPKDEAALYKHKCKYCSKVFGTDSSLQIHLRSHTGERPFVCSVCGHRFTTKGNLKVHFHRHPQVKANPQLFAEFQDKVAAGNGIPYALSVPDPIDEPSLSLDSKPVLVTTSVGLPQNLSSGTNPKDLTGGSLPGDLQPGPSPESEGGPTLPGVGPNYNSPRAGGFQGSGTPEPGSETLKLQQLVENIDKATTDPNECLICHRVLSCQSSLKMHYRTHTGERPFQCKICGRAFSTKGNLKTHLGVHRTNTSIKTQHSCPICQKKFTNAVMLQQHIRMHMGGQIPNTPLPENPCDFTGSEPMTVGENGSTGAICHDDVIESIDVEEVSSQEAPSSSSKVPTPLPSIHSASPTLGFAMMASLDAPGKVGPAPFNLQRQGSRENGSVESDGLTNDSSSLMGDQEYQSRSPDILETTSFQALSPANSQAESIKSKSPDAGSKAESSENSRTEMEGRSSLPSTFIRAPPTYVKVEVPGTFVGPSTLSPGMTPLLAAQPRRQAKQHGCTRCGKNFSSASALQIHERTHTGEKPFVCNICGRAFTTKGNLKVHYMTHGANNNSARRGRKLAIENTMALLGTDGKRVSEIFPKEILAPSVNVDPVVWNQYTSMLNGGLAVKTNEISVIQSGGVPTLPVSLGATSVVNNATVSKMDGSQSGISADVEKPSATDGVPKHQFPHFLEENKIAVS
# Technique: universal PBM
# Form: double-stranded DNA, one strand shown
# Medium: in vitro
# Tested at: 600 nM
# Setting: 8-mer, flanks averaged, mean of replicates
# Reading: higher = stronger binding
Strand,E-score
CCTACCGC,-0.309
AGTCTCAT,0.135
CATGATAC,0.179
AGTGGCAC,-0.274
CTATCTCA,0.0805
GTTACCTA,0.0341
CTCTTCCC,-0.0569

# Further values, each from its own experiment
Molecule,target,test,test system,conditions,scale,endpoint,value
"PhoQ, residues 284 288 289 292 302 303 SVTLVV","PhoP, residues 12 14 15 18 19 NHFIF (Escherichia coli, UniProt P23836)","Sort-seq, measured: YFP reporter",E. coli,"PhoQ-PhoP variant library, added: 10 µM Mg2+","reference: high Mg2+ state, higher = stronger signaling",fold induction,4.9
